Experimental data from different studies.
Each numbered part is a random draw from the data of one study; scales do not carry over between parts. Changes are numbered by the printed parent chain.

Study 1 — method: RNA Bind-n-Seq; form: RNA; sample: in vitro; tested at: not given; baseline: input RNA pool; reading: higher = stronger binding
Target: RING finger protein unkempt homolog, zinc fingers 1-6, GST-SBP tag (UNK, Homo sapiens, UniProt Q9C0B0, residues 30-357)
UniProt Q9C0B0, sequence (30-357, looked up): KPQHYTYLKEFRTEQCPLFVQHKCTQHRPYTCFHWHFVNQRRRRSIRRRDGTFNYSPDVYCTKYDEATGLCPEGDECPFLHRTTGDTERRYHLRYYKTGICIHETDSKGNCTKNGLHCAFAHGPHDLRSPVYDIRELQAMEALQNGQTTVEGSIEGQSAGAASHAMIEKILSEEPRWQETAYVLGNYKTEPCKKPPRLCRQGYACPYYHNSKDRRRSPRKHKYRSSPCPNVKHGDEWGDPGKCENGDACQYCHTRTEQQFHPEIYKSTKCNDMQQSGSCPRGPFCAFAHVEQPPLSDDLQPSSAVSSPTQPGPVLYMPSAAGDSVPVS
Notes: RNA with constant flanks, human and mouse sites, ends assumed
Strand | bound/input enrichment [ratio]
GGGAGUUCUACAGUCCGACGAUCUUAUAAUGGGCUUUUGCACUGUUAUUAUUUUUCCUUUGGAAUGUGAAGGUCUGAAUGAGGGUUUUGAUUUUGAAUGUUUCAAUGUUUUUGAGAAGCCUUGCUUACAUUUUAUGGUGUAGUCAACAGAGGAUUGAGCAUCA | 0.419
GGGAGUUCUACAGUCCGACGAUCGGAAGACCUUUCAACUCCAUUCAGAAGACAACAUUUAGUAAGGAGGAUGGCGGAGGUUACUAGUAAUUUUCAGAUGUCUUGGGCUUUUUCUGCCAACAAAACCCAAAAUCAAAUUAGAGUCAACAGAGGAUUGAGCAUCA | 4.67
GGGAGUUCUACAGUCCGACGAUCAAUAAACAGGAUAUGAAAGGGUGUAUGACAGCAGCUGAAAUCUCGAAAUACCUCACCCUUAGUUCAAUUAAGGAUCAUCCAUGGCACAUUCAAUCCUGCUGUGCUCUCACAGGAGAAGGGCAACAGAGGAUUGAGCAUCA | 0.22
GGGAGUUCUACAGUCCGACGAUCUGUCAACUGAGAGGCACAUACAAACUUAAUUUUGUUCCUCUUCAGUCUCUCUGUUUUGGAUUCUUCCUGGCAAUGUGUGCAGCAUGGGCUGAGCCUGGUGAUUGCCCUAGUGGGGAAGGCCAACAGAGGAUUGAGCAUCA | 0.155
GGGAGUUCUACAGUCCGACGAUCUCCUGCAGCAACUGCAGCAUGCUGUCCGAGCGCAAGGACGUGCUCACGGCGCACCCCGCGGCCCCCGGGCCCGUGUCGAGAGUUUAUUCUAGGGACAGGAAUCAAAAAUGCGGUGCGUCUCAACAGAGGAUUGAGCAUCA | 0.23
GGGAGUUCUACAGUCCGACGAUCUUCUUGAAGGCUAUUGGGUAUCUUAUUCCUCUUAUGGAUGCAGAAUAUGCCAACUACUAUACUAGAGAAGUGAUGUUAAUCCUUAUUCGAGAAUUCCAGUCUCCUGAUGAGGAAAUGAAACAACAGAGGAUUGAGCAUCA | 0.404
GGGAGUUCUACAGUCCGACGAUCAAUAUGAUAACACAGUAUUGGCCUGAUCGAGAAACAGCACCAGGGGAUAUAUCCCCUUAUACUAUUCCAGAAGAAGAUCGCCAUUGUAUUCGAGAAAAUAUUGUAGAAGCCAUUAUCCAUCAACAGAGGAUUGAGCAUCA | 0.191
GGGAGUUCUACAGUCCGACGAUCGGCACUGACCUGCCAUGCCUCGCCUGGAGGCUCAGCUGUGGGCAUCCCUCCAUGGGGUUCAUAGAAAUAAGUGCAAUUUCUACACCCCCGAAACAAUUCAAAGGGAAGCAGCAUUUCUUGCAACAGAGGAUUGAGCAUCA | 0.143

Study 2 — target: CCNB1, cyclin fold, Cln2 fusion (human); method: yeast growth competition, sequencing; sample: yeast; notes: strong parent motif; baseline: not given; reading: higher = stronger binding
Starting sequence: BRCA2 docking peptide (human); PSIKRNLLNEFDR
Substitution | normalised enrichment score
K4Q | 1.73
I3N | 0.375
I3H | 0.933
I3D | -0.683
F11V | 1.03
S2G | 1.28
D12K | 0.937
R13Y | 2.58
R5C | 0.576
L8F | 2.67
D12A | 1.89
R5F | -2.61
D12M | 1.66
F11H | -0.0377
E10P | 0.432
N9L | 2.63
S2I | 0.458
I3Q | 0.852
P1M | 2
K4F | 2.02
S2P | 2.3
R5S | 0.706
L7T | 0.914
R13S | 3.66
S2K | 1.98

Study 3 — method: protein binding microarray; form: double-stranded DNA, one strand shown; sample: in vitro; tested at: not given; baseline: not given; reading: higher = stronger binding
Target: Histone acetyltransferase KAT6A, winged helix 2, GST fusion (KAT6A, Homo sapiens, UniProt Q92794, residues 85-181)
Notes: 8-mer, flanks averaged, mean of 2 arrays, mostly near background
Construct (chain): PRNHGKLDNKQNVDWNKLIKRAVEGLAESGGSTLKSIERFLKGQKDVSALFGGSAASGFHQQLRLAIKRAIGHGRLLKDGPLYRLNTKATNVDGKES
Strand | E-score
CGACAGAG | -0.111
ATAAGCCG | 0.000995
ACCCCGTC | 0.015
TATACACA | -0.0144
TAGTGTAA | 0.0202
CACGACGA | -0.0368
ACCTCCGG | 0.173
ATATGTGA | -0.126
CAGACAGA | 0.139
AGCTCTTC | 0.14
ATACTAAT | 0.057
GCACACTA | 0.00493
GGGTTTCA | 0.0172
ACCAGTCC | -0.206
GCTCCGAC | -0.0152
AGCCAACA | -0.023
AGAAATAT | 0.0132
GTGAAATA | -0.0208
AGCATATC | 0.16
AGCGGCAT | 0.127

Study 4 — method: DHFR PCA, deep sequencing; sample: yeast; with: (+)-ABA 0.11 µM; baseline: wild-type fitted maximum; reading: higher = stronger binding
Target: ABI1, truncated, D143A, DHFR fusion (Arabidopsis thaliana)
Notes: methotrexate growth selection, single substitutions
Starting sequence: PYL1, truncated, DHFR fusion (Arabidopsis thaliana); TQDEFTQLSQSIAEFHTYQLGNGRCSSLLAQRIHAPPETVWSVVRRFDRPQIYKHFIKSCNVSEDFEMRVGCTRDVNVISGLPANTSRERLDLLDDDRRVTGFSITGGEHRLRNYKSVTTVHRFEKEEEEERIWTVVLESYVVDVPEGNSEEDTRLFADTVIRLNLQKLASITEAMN; partner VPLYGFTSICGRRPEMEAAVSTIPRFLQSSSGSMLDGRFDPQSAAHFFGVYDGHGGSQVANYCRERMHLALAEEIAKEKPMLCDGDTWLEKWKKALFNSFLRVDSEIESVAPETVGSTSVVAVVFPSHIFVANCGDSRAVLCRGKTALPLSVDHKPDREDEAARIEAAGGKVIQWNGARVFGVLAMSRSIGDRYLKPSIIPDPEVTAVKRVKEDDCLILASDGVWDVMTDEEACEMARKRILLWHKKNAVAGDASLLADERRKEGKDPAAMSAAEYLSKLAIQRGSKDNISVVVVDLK
Substitution | relative binding score [%]
E174G | -1.31
L29F | -0.349
R32L | 34.3
E139S | -1.45
H16C | 0.943
S87G | -2.49
V76E | 0.0461
V100L | -0.488
D3V | 15.3
F56D | -5.38
R132K | 55.7
R74Y | 2.15
N114T | -4.22
E14S | 4.7
E67W | -3.99

Study 5 — method: protein-binding microarray; form: double-stranded DNA, one strand shown; sample: in vitro; tested at: 250 nM; notes: 60-bp whole probe; with: salmon DNA 0.4 mg/ml; baseline: random background probes; reading: higher = stronger binding; shared flanks, not repeated: GCCTAGCAC … GTCTTGATTCGCTTGACGCTGCTG
Target: Interferon regulatory factor 7, full length, phosphomimetic (IRF7, Homo sapiens, UniProt Q92985, residues 1-503, S101K/S471D/S472D/S475D/S476D/S477D/S483D/S484D/S487D)
Construct (chain): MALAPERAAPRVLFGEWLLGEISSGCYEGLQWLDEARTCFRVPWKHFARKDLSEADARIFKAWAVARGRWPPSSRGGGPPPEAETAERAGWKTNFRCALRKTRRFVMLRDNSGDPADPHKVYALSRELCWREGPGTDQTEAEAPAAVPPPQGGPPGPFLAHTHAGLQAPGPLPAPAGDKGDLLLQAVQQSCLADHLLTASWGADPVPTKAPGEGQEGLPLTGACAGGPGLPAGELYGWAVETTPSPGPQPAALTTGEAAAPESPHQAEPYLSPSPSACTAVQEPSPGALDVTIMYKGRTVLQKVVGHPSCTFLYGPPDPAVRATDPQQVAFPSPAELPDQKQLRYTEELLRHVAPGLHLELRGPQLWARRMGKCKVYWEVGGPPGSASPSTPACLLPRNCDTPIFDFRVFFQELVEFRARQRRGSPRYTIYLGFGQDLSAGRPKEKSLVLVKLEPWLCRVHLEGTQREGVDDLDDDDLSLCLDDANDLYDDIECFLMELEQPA
Strand | log fluorescence
TTTGGTATCGACTTTCGGTTAGTGCTA | 4 z-score
ATAGATATCAGTTTCGATTAGTGCTAG | 8.51 z-score
GACGGTATCGGACTGGTGACGTGCTAG | -0.279 z-score
CTTCTTTTGCTAATTTTTTTGTGCTAG | 1.37 z-score
GAGGATATCGGGACTGGAGACGTGCTA | -0.395 z-score
GAGGGACTGCTTATCCTGACGTGCTAG | -0.375 z-score
TCAGATAACTTTTTTTTACTGTGCTAG | -0.121 z-score
GACGGTATCGACACTGGGTACGTGCTA | -0.333 z-score
TTTGGTCTCGGACTGGGTTAGTGCTAG | 0.596 z-score
TTAGGTTTCGGACAGGGTTAGTGCTAG | 2.07 z-score
AGTTTATTTATTTTTACATTGTGCTAG | 1.18 z-score
GACGATTCCAGGTTCGAGACGTGCTAG | 1.26 z-score
TCATTTATATACCTGAAACTGTGCTAG | 1.22 z-score
GACGGTTTCGGATTCGGGACGTGCTAG | 11.1 z-score
TTTCTTTTCTTTTCTTTTTTGTGCTAG | 4.94 z-score
GACGCACTGGGGACTGGAGACGTGCTA | -0.182 z-score
GACGGTATGGGGTTTCGGGACGTGCTA | 0.952 z-score
GAGATTTCCATTATTGCTTCGTGCTAG | 1.13 z-score
GACGATTTAGGGTATCGAGACGTGCTA | -0.172 z-score
